Values quoted from earlier work that unrelated publications cite.
Protocols differ between the studies behind these lines. ± marks the error that the study gave. In brackets after ≈: the same amount, converted by molar mass.
UniProt Q9NSY1, sequence (whole entry, looked up): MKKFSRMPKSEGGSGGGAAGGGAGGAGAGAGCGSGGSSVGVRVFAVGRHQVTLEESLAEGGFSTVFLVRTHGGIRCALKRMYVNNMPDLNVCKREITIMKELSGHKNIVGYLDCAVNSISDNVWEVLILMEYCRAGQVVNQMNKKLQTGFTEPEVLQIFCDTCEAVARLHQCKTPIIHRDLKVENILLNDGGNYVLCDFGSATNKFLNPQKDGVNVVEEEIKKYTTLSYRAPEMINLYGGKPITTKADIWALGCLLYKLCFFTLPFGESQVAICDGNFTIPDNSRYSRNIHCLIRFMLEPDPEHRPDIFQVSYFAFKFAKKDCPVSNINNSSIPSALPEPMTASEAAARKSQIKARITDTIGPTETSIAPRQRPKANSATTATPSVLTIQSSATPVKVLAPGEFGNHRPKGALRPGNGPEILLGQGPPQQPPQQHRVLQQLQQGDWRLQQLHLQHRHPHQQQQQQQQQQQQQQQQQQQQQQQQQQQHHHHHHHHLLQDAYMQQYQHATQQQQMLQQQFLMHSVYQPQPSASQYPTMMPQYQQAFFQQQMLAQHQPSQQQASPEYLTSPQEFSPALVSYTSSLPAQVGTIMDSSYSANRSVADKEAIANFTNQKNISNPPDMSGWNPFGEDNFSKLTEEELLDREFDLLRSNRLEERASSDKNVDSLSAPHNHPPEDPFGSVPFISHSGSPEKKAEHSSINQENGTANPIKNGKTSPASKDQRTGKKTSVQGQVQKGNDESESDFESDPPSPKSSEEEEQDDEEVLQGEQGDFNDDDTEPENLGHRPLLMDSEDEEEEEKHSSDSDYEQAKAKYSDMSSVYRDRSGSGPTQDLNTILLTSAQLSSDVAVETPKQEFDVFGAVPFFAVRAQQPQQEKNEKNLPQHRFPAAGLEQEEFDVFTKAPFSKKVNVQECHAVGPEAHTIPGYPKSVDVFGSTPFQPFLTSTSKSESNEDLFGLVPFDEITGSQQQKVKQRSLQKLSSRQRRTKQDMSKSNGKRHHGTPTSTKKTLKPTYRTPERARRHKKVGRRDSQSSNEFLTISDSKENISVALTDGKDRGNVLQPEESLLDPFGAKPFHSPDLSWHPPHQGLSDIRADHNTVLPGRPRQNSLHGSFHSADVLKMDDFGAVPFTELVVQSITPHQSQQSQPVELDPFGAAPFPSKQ

SMILES | tested on | assay | system | conditions | scale | measurement | result
Nc1cccc2c1C(=O)N(C1CCC(=O)NC1=O)C2=O (stereo not drawn) | – | – | relapsed refractory multiple myeloma patients | dose not given | – | discontinuation due to adverse events | 12%
Nc1cc(C(F)(F)F)c(-c2nc(N3CCOCC3)nc(N3CCOCC3)n2)cn1 | BMP2K (Homo sapiens, UniProt Q9NSY1) | enzyme activity | – | 10 µM | baseline: untreated | remaining activity | 87%
CNC(C)C1CCC(N)C(OC2C(N)CC(N)C(OC3OCC(C)(O)C(NC)C3O)C2O)O1 (stereo not drawn) | Escherichia coli | – | clinical isolate RKI-No_95/15 | – | – | MIC | 1 µg/mL (≈ 2.09 µM)
c1ccc2c(c1)ccc1ccccc12 | – | – | pooled human liver microsomes | 0.25 µM | – | metabolism rate | 99.7 pmol/min/mg
CC(C)Cc1ccc(C(C)C(=O)O)cc1 (stereo not drawn) | – | – | rat, plasma | – | – | steady-state concentration | ~180 µM
C[C@H]1COCCN1c1nc(-c2cnc(N)cc2C(F)F)nc(N2CCOCC2)n1 | A-427 | – | – | – | – | GI50 | 0.168 µM
O=C(c1cc(Cc2n[nH]c(=O)c3ccccc23)ccc1F)N1CCN(C(=O)C2CC2)CC1 | – | – | human | oral, dose not given, capsule | – | AUC at steady state | 48000 ng·h/mL
CC(O)(P(=O)(O)O)P(=O)(O)OP(=O)(O)OC[C@H]1O[C@@H](n2ccc(N)nc2=O)[C@@H](O)[C@@H]1O (stereo partly drawn) | – | – | buffer | concentration not given, pH 7.4, 37 °C | – | hydrolysis half-life | 12 h
NC(=O)N1c2ccccc2CC(=O)c2ccccc21 | – | non-compartmental analysis | healthy adults | – | – | clearance | ~175 L/h
C[C@@H]1CCO[C@H]2Cn3cc(C(=O)NCc4ccc(F)cc4F)c(=O)c(O)c3C(=O)N12 | – | population PK model | treatment-naive adult patients | – | – | apparent clearance (CL/F) | 0.901 L/h
C[C@@H](Oc1ccc(S(C)(=O)=O)cc1C(=O)N1C[C@@H]2C[C@]2(c2cc(C(F)(F)F)on2)C1)C(F)(F)F | – | – | human | 25 mg single, together with: rifampicin | baseline: with over without rifampicin | AUClast ratio | 0.1
C=CC(=O)NC1CCN(c2ncc3ncnc(Nc4ccc(Oc5ccc6c(c5)ncn6C)c(C)c4)c3n2)CC1 | – | – | human | 30 mg, mostly grade 1 | – | participants with TEAEs | 61.5%
Nc1ccn([C@@H]2CS[C@H](CO)O2)c(=O)n1 | – | – | rat | – | – | oral bioavailability | 80%
COc1cc2c(Oc3ccc4[nH]c(C)cc4c3F)ccnc2cc1OCC1(N)CC1 | – | – | dog | oral | – | oral bioavailability | ~67%
Cc1c(C(=O)O)ccc2c3n(nc12)[C@@H]1[C@H](C3)N(CC2CC2)[C@@]2(C(=O)Nc3cc(Cl)ccc32)[C@H]1c1cccc(Cl)c1F | – | – | human patients | dose not given, phase I trial | baseline: patients | neutropenia, grade ≥3, treatment related | 24.1%
O=C(O)CN1CCN(CC(=O)O)CCN(CC(=O)O)CCN(CC(=O)O)CC1 | – | pH-potentiometry, refers to: logK5H | 0.15 M NaClO4 | 25 °C | – | protonation constant (log) | 2.05
CC(C)[C@H](N)C(=O)OCC(CO)OCn1cnc2c(=O)[nH]c(N)nc21 (stereo partly drawn) | – | – | rat | 10 mg/kg | – | oral bioavailability | 92%
CC(O)C(C)n1ncn(-c2ccc(N3CCN(c4ccc(OCC5COC(Cn6cncn6)(c6ccc(Cl)cc6Cl)O5)cc4)CC3)cc2)c1=O (stereo not drawn) | – | – | plasma | Simcyp input parameter | – | fraction unbound in plasma | 0.016
CC(C)=CCC/C(C)=C/CC/C(C)=C/CC[C@@](C)(O)CCC1=C(C)C(=O)C(C)=C(C)C1=O | – | – | human, Friedreich's ataxia | concentration not given | – | clinical tolerability | not toxic
CCCC(CCC)C(=O)O | – | – | mouse | i.p., 6 Hz seizure test, 32 mA | – | protective index | 2.9
CCCC(C)(C)C(=O)O | – | small eyes | zebrafish embryo | nominal concentration | – | EC10 | 540 µM
CO[C@@H](C)Cn1c(=O)n(C)c2cnc3ccc(-c4cncc(C(C)(C)O)c4)cc3c21 | – | – | dog | – | – | oral bioavailability | 66%
CC1(C)CCC(c2ccc(Cl)cc2)=C(CN2CCN(c3ccc(C(=O)NS(=O)(=O)c4ccc(N[C@H](CCN5CCOCC5)CSc5ccccc5)c(S(=O)(=O)C(F)(F)F)c4)cc3)CC2)C1 | – | – | thoracic lymph duct-cannulated dog | – | – | lymphatic bioavailability | ~59%
N#C[C@@]1(c2ccc3c(N)ncnn23)O[C@H](CO)[C@@H](O)[C@H]1O | – | – | dog, plasma | intravenous, 2 mg/kg, 0.083 h, solution | – | plasma concentration | 4570 ng/mL

SMILES | tested on | assay | system | conditions | scale | measurement | result
CN(C)C(=O)c1cc2cnc(Nc3ccc(N4CCNCC4)cn3)nc2n1C1CCCC1 | – | refers to: vomiting | advanced solid tumour or lymphoma patients | dose not given, continuous dosing | baseline: patients | adverse event incidence | 21.1%
CC(=O)N(C)[C@H]1CCN(C(=O)c2cnc3c(c2)C[C@](C)(c2ccc(F)cc2)N3)C1 | – | – | Wistar Han rat | 13 weeks | – | NOAEL | 50 mg/kg/day
CC(=O)OCC(CCn1cnc2cnc(N)nc21)COC(C)=O | – | – | rat | 40 mg/kg | – | oral bioavailability | 41%
CN(C(=O)C(C)(C)c1cc(C(F)(F)F)cc(C(F)(F)F)c1)c1cnc(N2C[C@H]3COCCN3C[C@H]2CO)cc1-c1ccc(F)cc1[14CH3] | – | – | human | once-daily dosing | – | time to steady state | 5 to 7 days
CC(C)(C)NCC(O)c1cc(O)cc(O)c1 (stereo not drawn) | – | – | human, plasma | inhaled | – | Tlast | 4 h
Oc1cc(Cl)ccc1Oc1ccc(Cl)cc1Cl | – | – | human liver | 1 µM | – | glucuronidation rate | 7 pmol/min/mg protein
CC[C@H](C)CCCCC(=O)N[C@@H](CCN)C(=O)N[C@H](C(=O)N[C@@H](CCN)C(=O)N[C@H]1CCNC(=O)[C@H]([C@@H](C)O)NC(=O)[C@H](CCN)NC(=O)[C@H](CCN)NC(=O)[C@H](CC(C)C)NC(=O)[C@@H](Cc2ccccc2)NC(=O)[C@H](CCN)NC1=O)[C@@H](C)O | – | – | patients, urine | time not given | – | urinary recovery median | 4.04%
CC(C)(c1ccc(O)cc1)c1ccc(O)cc1 | – | HPLC-MS | zebrafish embryos | waterborne, 1 nM, from 8 to 58 hpf | – | uptake | 0.02 µg/kg
Cc1cc(-c2nccc3c2ccn3CC(=O)Nc2ccc(-c3cnccn3)cn2)ccn1 | – | refers to: total drug | dog | dose not given, 1-month toxicology study | – | Cmax | 6.4 µM
Cn1cncc1[C@@](N)(c1ccc(Cl)cc1)c1ccc2c(c1)c(-c1cccc(Cl)c1)cc(=O)n2C | – | – | human adults, plasma | 300 mg, 7, 9 | – | Cave | ~350 ng/mL
CC(C)n1c(Nc2cccnc2)nc2cnc(Nc3ccc(N4CCN(C)CC4)cc3)nc21 | – | – | healthy human | 100 mg, single dose, median | – | AUC(0-t) | 836 ng·h/mL
COc1cc(Cc2cnc(N)nc2N)cc(OC)c1OC | – | – | human | – | – | CL | 1.17 mL/min/kg
C#C[C@]1(O)CC[C@H]2[C@@H]3CCc4cc(O)ccc4[C@H]3CC[C@@]21C | – | – | HCl fasted stomach medium | 0.5 h | – | cumulative release | 81%
CCN1[C@@H](C(=O)NC23CCC(C(=O)O)(CC2)CC3)[C@H](c2cccc(Cl)c2F)[C@]2(C(=O)Nc3cc(Cl)ccc32)C12CCCCC2 | – | – | patients with solid tumours or lymphomas | dose not given, grade ≥3, first-in-human trials | – | patients with related thrombocytopenia | 14%
O=C(COc1ccc(N2C(=O)[C@@H]3[C@@H]4C=C[C@@H]([C@H]5C[C@@H]45)[C@@H]3C2=O)cc1)c1cc(Cl)cc(Cl)c1 | – | – | mouse, brain | intravenous, 5 mg/kg | – | AUC(0-last) | 768000 ng·min/g
CCCC(CCC)C(=O)O | – | pericardial and yolk oedema | zebrafish embryo | nominal concentration | – | EC10 | 38 µM
N#CCNC(=O)c1ccc(-c2ccnc(Nc3ccc(N4CCOCC4)cc3)n2)cc1 | – | – | patients with myelofibrosis | integrated phase III trials | – | peripheral neuropathy incidence | 14.8%
CNC(=O)c1c(C)oc2cc(Oc3ncnc4cc(OC)c(OC)cc34)ccc12 | – | – | feces | 5 mg radiolabelled, time not given | – | dose recovered | ~30%
C=CC(=O)N1CCC([C@@H]2CCNc3c(C(N)=O)c(-c4ccc(Oc5ccccc5)cc4)nn32)CC1 | – | – | human patients | oral, 160 mg once daily, day 8 | – | AUC(0-8h) | 1280 ± 473 ng·h/mL
CN[C@@H](C)C(=O)N[C@H]1CN(S(=O)(=O)c2cccc(S(=O)(=O)N3CC[C@H]4CC[C@@H](C(=O)NC(c5ccccc5)c5ccccc5)N4C(=O)[C@@H](NC(=O)[C@H](C)NC)C3)c2)CC[C@H]2CC[C@@H](C(=O)NC(c3ccccc3)c3ccccc3)N2C1=O | – | – | rat, plasma | dose not given | – | clearance | 58.3 mL/min/kg
CCN1CCN(Cc2ccc(Nc3ncc(F)c(-c4cc(F)c5nc(C)n(C(C)C)c5c4)n3)nc2)CC1 | – | – | human | 100 mg single dose, tablet | – | AUC(0-t) | 3880 ng·h/mL
Cn1c(Cn2ccc(C(F)(F)F)c(Oc3cc(Cl)cc(C#N)c3)c2=O)n[nH]c1=O | – | – | human subjects | dose not given, up to 48 weeks | – | Dizziness incidence | 5%
N#CCNC(=O)c1ccc(-c2ccnc(Nc3ccc(N4CCOCC4)cc3)n2)cc1 | – | – | human, feces | oral, time not given, single dose 14C-labelled | baseline: dose | recovered drug-related material | 69.3%
CC1(C)S[C@@H]2[C@H](NC(=O)[C@H](N)c3ccccc3)C(=O)N2[C@H]1C(=O)O | Escherichia coli | – | clinical isolate RKI-No_514/16 | – | – | MIC | > 16 µg/mL

Excerpt of the above:
SMILES | tested on | assay | system | conditions | scale | measurement | result
CC[C@H](C)CCCCC(=O)N[C@@H](CCN)C(=O)N[C@H](C(=O)N[C@@H](CCN)C(=O)N[C@H]1CCNC(=O)[C@H]([C@@H](C)O)NC(=O)[C@H](CCN)NC(=O)[C@H](CCN)NC(=O)[C@H](CC(C)C)NC(=O)[C@@H](Cc2ccccc2)NC(=O)[C@H](CCN)NC1=O)[C@@H](C)O | – | – | patients, urine | time not given | – | urinary recovery median | 4.04%
C=CC(=O)N1CCC([C@@H]2CCNc3c(C(N)=O)c(-c4ccc(Oc5ccccc5)cc4)nn32)CC1 | – | – | human patients | oral, 160 mg once daily, day 8 | – | AUC(0-8h) | 1280 ± 473 ng·h/mL
Nc1ccn([C@@H]2CS[C@H](CO)O2)c(=O)n1 | – | – | rat | – | – | oral bioavailability | 80%
C[C@@H](Oc1ccc(S(C)(=O)=O)cc1C(=O)N1C[C@@H]2C[C@]2(c2cc(C(F)(F)F)on2)C1)C(F)(F)F | – | – | human | 25 mg single, together with: rifampicin | baseline: with over without rifampicin | AUClast ratio | 0.1
CNC(C)C1CCC(N)C(OC2C(N)CC(N)C(OC3OCC(C)(O)C(NC)C3O)C2O)O1 (stereo not drawn) | Escherichia coli | – | clinical isolate RKI-No_95/15 | – | – | MIC | 1 µg/mL (≈ 2.09 µM)
CC(C)(C)NCC(O)c1cc(O)cc(O)c1 (stereo not drawn) | – | – | human, plasma | inhaled | – | Tlast | 4 h
